Assay results gathered from unrelated publications.
Each numbered part is a random draw from the data of one study; scales do not carry over between parts.

Block 1 — technique: protein binding microarray; molecule type: double-stranded DNA, one strand shown; medium: in vitro; concentration: not given; baseline: not given; reading: higher = stronger binding; measurement: E-score
Target: Histone acetyltransferase KAT6A, winged helix 1, GST fusion (KAT6A, Homo sapiens, UniProt Q92794, residues 1-85)
Notes: 8-mer, flanks averaged, mean of 2 arrays, mostly near background
Residues (chain): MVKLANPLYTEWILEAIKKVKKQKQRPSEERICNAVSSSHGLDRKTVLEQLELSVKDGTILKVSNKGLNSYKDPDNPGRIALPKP
CCCAAAGA: -0.315
GGTTTTAA: 0.0473
CAATCTGA: -0.125
CGGAAGTA: 0.155
GAGAGTAC: 0.0328
CAAGTCTA: -0.187
CAATATTA: -0.0178
AGCGCACT: 0.235
GCTTGTCA: -0.0652
CACAACAA: -0.055
TCCGGGAA: 0.0441
CGCATGAC: 0.147
GTGCACAC: -0.139
CGGCCGTA: 0.445
GCAGGAGC: 0.0215
ATGTGAAC: -0.0583
ACGCTTGG: 0.047
CTCTACTA: -0.171
GGCGTAAA: 0.174
CGGAGAAC: 0.0471
CGGCCGCA: 0.448
CCTACCAG: -0.0532
CTTGACCA: -0.237
GATTCCAC: -0.144
CAACTCGA: -0.283

Block 2 — technique: competition protein-binding microarray; molecule type: double-stranded DNA, one strand shown; medium: in vitro; concentration: 2 µM; with: Cbf1 competitor, 0.05 µM; reading: higher = stronger binding; measurement: fluorescence intensity; constant ends, left off below: … GTCTTGATTCGCTTGACGCTGCTG
Target: Phosphate system positive regulatory protein PHO4, full length, GST-tagged (PHO4, Saccharomyces cerevisiae, UniProt P07270, residues 1-312)
Notes: whole 60-bp probe, lowest competitor level
Residues (chain): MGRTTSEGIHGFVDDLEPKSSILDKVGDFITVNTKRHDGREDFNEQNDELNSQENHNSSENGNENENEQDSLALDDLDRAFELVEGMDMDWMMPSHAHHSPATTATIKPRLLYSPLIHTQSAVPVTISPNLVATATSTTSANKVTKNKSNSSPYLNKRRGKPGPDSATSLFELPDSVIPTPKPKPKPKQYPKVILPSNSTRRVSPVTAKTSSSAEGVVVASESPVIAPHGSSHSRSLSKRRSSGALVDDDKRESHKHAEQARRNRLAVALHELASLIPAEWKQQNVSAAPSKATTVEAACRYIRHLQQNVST
TGCATCCTCTCCGGCCACGTGGGTAGAGGTTTTACC: 19400 a.u.
AGTGGGATCGTTCGTCACAGCGTCGATAGGGTAAGG: 3170 a.u.
CACCCAAGCGTTAGGCACGTGTGGGCCGGAGTTTAC: 16200 a.u.
GCGCTACCGTTGCGCCACGAGGCCTGTCCAACAGCG: 9770 a.u.
TCCGCGAGTCATCTCGACATGACAATCTTTTGCTAG: 3900 a.u.
TTGTTGATCCTGGTAGGCGTGGCCGTACCGCCATTG: 7200 a.u.
GGCGCAACATTTAATTGCATGACAAATTCCACTGCT: 5210 a.u.
AAATTACTAAGTTGAGTTGTGGGTGACGCCGTATGA: 4330 a.u.
CATACCCAACCTTGGAAAGTGGGTGAAGATATTTGT: 3580 a.u.
CTTTCCCGATCTTGGTTAGTGGGTGTAGCACATTTG: 4770 a.u.
AAATTACTAAGTTGCGTTGTGGGTGACGCCGTATGA: 4410 a.u.
CTTCTGTAAATTTGTCACCTTACTTGACGCGCCCCG: 3710 a.u.
CTTTCCCGATCTTGCAGCGTGGGTGTAGCACATTTG: 8530 a.u.
TCGGGCGCTCTAGGACGCGTGTCGGTCGGGTAACCA: 7050 a.u.
CACAACAGAGTTCACCACGTGGTAACCTATTTCTAC: 19000 a.u.
CGTCCTAGCGATTGAACAGTGGGTGCCATGAGGAAG: 6320 a.u.
GTCTTGTCTCATTTTCACGTGAAATTCCCCACTTCA: 7330 a.u.
TCATTTTAGGCAGGGCCGGTACAGACCGCACCAATC: 2670 a.u.
AAATTACTAAGTTGCATGGTGGGTGACGCCGTATGA: 5350 a.u.

Block 3 — technique: RNA Bind-n-Seq; molecule type: RNA; medium: in vitro; concentration: 200 nM; notes: whole 134-nt RNA, ends assumed; with: 150 mM LiCl; baseline: input library; reading: higher = stronger binding; measurement: log2 enrichment; each molecule: 7-deaza-guanosine replaces G
Target: Ras GTPase-activating protein-binding protein 1, full length (G3BP1, Homo sapiens, UniProt Q13283)
UniProt Q13283, sequence (whole entry, looked up): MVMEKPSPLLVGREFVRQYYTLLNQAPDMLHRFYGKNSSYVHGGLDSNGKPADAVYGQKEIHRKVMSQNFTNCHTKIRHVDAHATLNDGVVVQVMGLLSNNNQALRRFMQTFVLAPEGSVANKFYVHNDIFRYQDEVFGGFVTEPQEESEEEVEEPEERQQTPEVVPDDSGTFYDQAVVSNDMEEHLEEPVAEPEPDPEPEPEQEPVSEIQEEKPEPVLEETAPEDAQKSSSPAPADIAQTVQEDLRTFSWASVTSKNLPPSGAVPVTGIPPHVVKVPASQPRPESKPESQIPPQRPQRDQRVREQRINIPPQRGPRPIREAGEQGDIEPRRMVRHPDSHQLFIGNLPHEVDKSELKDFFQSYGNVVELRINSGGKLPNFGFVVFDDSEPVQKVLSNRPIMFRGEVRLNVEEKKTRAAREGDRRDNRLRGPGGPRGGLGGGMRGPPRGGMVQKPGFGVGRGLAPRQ
Constant ends, left off below: GGGAGUUCUACAGUCCGACGAUC … UGGAAUUCUCGGGUGUCAAGG
CUGUGCUACACAUCGUAUGUACCGAAUCGGUUUUUUUGGGUUUUUUUGGGGUUUUUUUGGGGAAAGUAUUAUGUUACGCCGUUCGGAUCU: 1.6
UGGGAGGUGGUUUUUGUUUAUUUUUUUAGCUCAUUUCCAGGGGUGGGAAUUUUUUUUUAAUAUGUGUCAUGAAUAAAGUUGUUUUUGAAA: -0.073
UCCUCAAGUCCUGUGCUACACAUCGUAUGUACCGAAUCGGAGGAAAGGUGGAAAGUAUUAUGUUACGCCGUUCGGAUCUGCACUUCCAGC: -1.55
UGUGCUACACAUCGUAUGUACCGAAUCGGGGUUUUUGGGGUUUUUUUGGGGUUUUUUUGGGGAAAGUAUUAUGUUACGCCGUUCGGAUCU: 1.84
CAAGUCCUGUGCUACACAUCGUAUGUACCGAAUCGGGGAAGGGAAGGGGAAGGGGAAAGUAUUAUGUUACGCCGUUCGGAUCUGCACUUC: 0.000699
UGGGAGGUGGAUUUUGUUUAUUUUUUUAGCUCAUUUCCAUGGGUGGGAAUUUUUUUUUAAUAUGUGUCAUGAAUAAAGUUGUUUUUGAAA: -0.092
AGUCCUGUGCUACACAUCGUAUGUACCGAAUCGGAAAAGGGGAAAAGGGGAAAAGGGGAAAGUAUUAUGUUACGCCGUUCGGAUCUGCAC: 0.233
CUGUGCUACACAUCGUAUGUACCGAAUCGGGUUUUUUUGGGUUUUUUUGGGUUUUUUUGGGAAAGUAUUAUGUUACGCCGUUCGGAUCUG: 1.15

Block 4 — technique: RNA Bind-n-Seq; molecule type: RNA; medium: in vitro; concentration: 365 nM; baseline: no-protein control; reading: higher = stronger binding; measurement: RBNS enrichment (R)
Target: RNA binding protein fox-1 homolog 2, RRM domain, GST-SBP tag (RBFOX2, Homo sapiens, UniProt O43251-10, residues 100-194)
Notes: natural RNA segment, single round, ends assumed
Constant ends, left off below: GGGAGUUCUACAGUCCGACGAUC … UGGAAUUCUCGGGUGCCAA
Construct (chain): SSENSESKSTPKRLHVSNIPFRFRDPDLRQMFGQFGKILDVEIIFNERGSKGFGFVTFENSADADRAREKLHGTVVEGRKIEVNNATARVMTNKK
CCGUUUGCUUUGGAAAAAACAAAACAAAACAAAACAAAACAAAAAACAAAAACACUGCGCAUUUCAAUCAUCUGCACCUUUCCCUCGUUUUGCAUUAGUACUGAAAUCUG: 0.96
UAGCAGGACUGAAUUGUCCCCAGUUUGCAGAAAAGCACCUGCCGACCUCGUCCUCCCCCUGCCAGUGCCUUACCUCCUGCCCAGGAGAGCCAGCCCUCCCUGUCCUCCUC: 0.505
UGCCUUCACCGGGAGCCACGCCGUGCAUGGCAGCCUUCCCUGGACGAGCGCUCGGUGUUCACACUGAACUGUGGGGUCGACGGGAGGGGUGCCUUUUACAUGUUCUAUUU: 0.242
CCAUCCUGUGAGGGCAGCGGUGGCGCCCGGCAAAGUUGGAGCCCUUGCGGUACCAGAAAGCAGCGAGAGCGAGACCUGGGAGCCAGGGCAGGGGUGGCUGACCCCAUGCU: 0.662
AGAAGGUGAACAACCUGAAAGCGCCUGUGAAGGGAACCAGUCACUCUUCUGUACCUCUCUUCUCUUAGAGAAAAAAAUGCCUUCCUUGCUUUGUAUCAUACCCAAUAUUU: 0.554
AAGUUUUUAAUUUGAUGCCCAAUAUAUUCUGACCGUUAAAAAAUUCUUGUUCAUAUGGGAGAAGGGGGAGUAAUGACUUGUACAAACAGUAUUUCUGGUGUAUAUUUUAA: 0.55
CUGGAUAUGUGACUGUUUUGUUCUCUGUAAAGUGUAUUCUUGGGAAGUGAUUGGUUUAUAUCAGAUUCAGAGGAGCCCAAUUAACUCCAGUGUAGGUAAUGUAAAACAGU: 0.443
AGAGCUUCAGGCCCAGACUGGGGCACCGAAGCUUUCAGCUUUGGGGGUCAUUCUACCAACAAUCAGUCCCUGAGGGUUCACAACACCCUGGAACCAAACAUCAGAAUGCA: 0.87
ACUUAUACUAUUAAAAUUGUUGCGAUGUCACUUAGCUUGACUUUAAAGUUGGCUGGACUGUUAUACUAUGAAUAUACUACGAAUUUGUAAACUAUCAUUAUAAAUUGAAG: 0.405
CAAUUUCUAGAGUAGUUUUGAAUGGGUUGAUUUCCCCCACUCCCACAAACUCUGAAGCCAGUGUCUAGCUUACUAAAAAAAGAGUUGUAUAUAAUAUUUAAGAUGCUGAG: 0.587
GGCUCUGGGCCCUCGUCCACCGGGCCAAGUGGAGCCCCGCUUCAAGCUCUCUGUUCAGCUCCGCGUUCUCAUGCUUCUCAUGGGGUGGGAAAAGGGGGCAAAGCCCCCAC: 0.39
CUUUCUGAGUCUUAACCUCCUUGUCUCUAAAAUGGGCAAUUAAAACAAUCUUCAAGAGCCCUGUAAGGUUAAUGCCGAUAAAAUGACUGACUCCGCCCUUCUUCCUUAGU: 0.253

Some of these lines once more (block 1):
CGGAAGTA: 0.155
CTTGACCA: -0.237
AGCGCACT: 0.235
CAATATTA: -0.0178
GATTCCAC: -0.144
ACGCTTGG: 0.047
CGGCCGCA: 0.448
CAATCTGA: -0.125
CGGCCGTA: 0.445
